Published values from different studies.
Each numbered part is a random draw from the data of one study; scales do not carry over between parts. Changes are numbered by the printed parent chain.

Sample 1 — method: RNA Bind-n-Seq; molecule type: RNA; medium: in vitro; concentration: 200 nM; notes: whole 134-nt RNA, ends assumed; added: 150 mM LiCl; reference: input library; reading: higher = stronger binding; all molecules: 7-deaza-guanosine replaces G
Target: Fragile X messenger ribonucleoprotein 1, C-terminal low-complexity region (Fmr1, Mus musculus, UniProt P35922)
The log2 enrichment of `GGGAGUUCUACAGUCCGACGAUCAGUCCUGUGCUACACAUCGUAUGUACCGAAUCGGGGUUUUUGGUUUUUGGGUUUUUGGAAAGUAUUAUGUUACGCCGUUCGGAUCUGCACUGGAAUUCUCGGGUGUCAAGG` is reported as -1.61.
For `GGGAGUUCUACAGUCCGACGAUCUGUAUCCCUGUUUCUUUUCUCCCUACAGAAACAUAUGAGGAUUUUGAUACCAGGAUACUUGAGGUAGGCAUGCAGAAUUAAAUACCUGGUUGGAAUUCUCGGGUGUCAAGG`, the log2 enrichment was -0.0915.
`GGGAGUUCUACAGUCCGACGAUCCACAGACAACACGCACCCACACAGACACAAAGGGAAGGGGUUGGGAUGGGGACAGGGUGCACAGCAGGGCGGGGUAGGACCCCAGCCCCUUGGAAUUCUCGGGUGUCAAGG` has a log2 enrichment of 0.0902.
`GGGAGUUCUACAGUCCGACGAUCUCAAGUCCUGUGCUACACAUCGUAUGUACCGAAUCGGGAGGGAAAAAGGGUGGGAAAGUAUUAUGUUACGCCGUUCGGAUCUGCACUUCCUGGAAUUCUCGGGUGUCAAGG` has a log2 enrichment of -1.28.
The log2 enrichment of `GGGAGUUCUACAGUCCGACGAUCUGUGCUACACAUCGUAUGUACCGAAUCGGGGAAAAAAAGGGAAAAAAAGGGGAAAAAAAGGGAAAGUAUUAUGUUACGCCGUUCGGAUCUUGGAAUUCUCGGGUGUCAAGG` is reported as 0.661.
For `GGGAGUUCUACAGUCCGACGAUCUAGUAACAGGGGUGAAGAUGCCUUUUGUGAUCCUGAAGAUGAAUGGGAACCCGACAUUACAGAUGCACCAGUUUCUUCACUUUCUAGAAGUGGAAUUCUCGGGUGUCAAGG`, the log2 enrichment was -2.53.

Sample 2 — method: protein-binding microarray; molecule type: double-stranded DNA, one strand shown; medium: in vitro; concentration: 940 nM top; notes: 60-bp whole probe; added: salmon DNA 0.4 mg/ml; reference: random background probes; reading: higher = stronger binding; constant ends, left off below: GCCTAGCAC … GTCTTGATTCGCTTGACGCTGCTG
Target: Interferon regulatory factor 5, full length, phosphomimetic (IRF5, Homo sapiens, UniProt Q13568-2, residues 1-514, S451D/S453D/S456D/S462D)
`GATGGTTTCGACTTTCGGGACGTGCTA`: “fitted relative affinity” 8.62 z-score.
For `CCAGGGCTCTAGAGAAATAGGTGCTAG`, “fitted relative affinity” read -0.508 z-score.
`TATGTTCACTATTTAAGACCGTGCTAG` — result for “fitted relative affinity”: 0.181 z-score.
`GACGAACTGGGGTATCGAGCCGTGCTA` — result for “fitted relative affinity”: 0.319 z-score.
`GACGGTTCCGGGTTTCGGGACGTGCTA` — result for “fitted relative affinity”: 2.88 z-score.
`ATAGGTATCGGTTTCGGTTAGTGCTAG` — result for “fitted relative affinity”: 11.8 z-score.
`TCAACACTGGTTTTTACACTGTGCTAG`: “fitted relative affinity” -0.0134 z-score.
For `GACGGTATCGGGTATCAGGACGTGCTA`, “fitted relative affinity” read 4.57 z-score.
`ATTTTTTTGCATTGCTTCTAGTGCTAG`: “fitted relative affinity” 0.434 z-score.
`GACGGACTGCTACTGCTGGCGTGCTAG` — result for “fitted relative affinity”: -0.889 z-score.
`TGAGGTATCGGGTTTCGGTTAGTGCTA`: “fitted relative affinity” 7.26 z-score.
`TTAGAACTGGGAACTGGATTAGTGCTA`: “fitted relative affinity” -0.39 z-score.
`TTAGGTTCCCTTTTCCTTTAGTGCTAG` — result for “fitted relative affinity”: 0.885 z-score.
Under “fitted relative affinity”, `TTAGGTTTCGTTTCCCTTTAGTGCTAG` is recorded as 10.8 z-score.
Under “fitted relative affinity”, `TCAGGACTGCTTATCCTTTAGTGCTAG` is recorded as 0.0776 z-score.
Under “fitted relative affinity”, `GACGATTCCAGTCTCGAGACGTGCTAG` is recorded as 1.46 z-score.
`TCTACTTCTGTTTTTGCTTTGTGCTAG`: “fitted relative affinity” 1.07 z-score.
`GACGGTATCGGGACTGGGGGCGTGCTA` — result for “fitted relative affinity”: 5.15 z-score.

Sample 3 — method: competition protein-binding microarray; molecule type: double-stranded DNA, one strand shown; medium: in vitro; concentration: 2 µM; added: Pho4 competitor, 0.05 µM; reading: higher = stronger binding
Target: Centromere-binding protein 1, full length, His-tagged (CBF1, Saccharomyces cerevisiae, UniProt P17106, residues 1-351)
Chain of UniProt P17106 (whole entry, looked up): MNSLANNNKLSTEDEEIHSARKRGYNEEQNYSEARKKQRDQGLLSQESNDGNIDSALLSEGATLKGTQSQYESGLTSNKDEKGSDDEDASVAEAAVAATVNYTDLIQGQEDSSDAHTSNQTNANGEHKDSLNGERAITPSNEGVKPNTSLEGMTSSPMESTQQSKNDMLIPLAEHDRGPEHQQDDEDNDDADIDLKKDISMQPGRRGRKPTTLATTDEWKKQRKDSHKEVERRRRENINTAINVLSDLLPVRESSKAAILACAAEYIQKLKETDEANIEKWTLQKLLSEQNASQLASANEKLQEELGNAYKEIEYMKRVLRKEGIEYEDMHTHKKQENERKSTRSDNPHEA
Notes: whole 60-bp probe, lowest competitor level
`CGTCCTAGTGATTGCCGAGTGGGTGCCATGAGGAAGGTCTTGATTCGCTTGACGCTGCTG` has a fluorescence intensity of 90.2 a.u.
The fluorescence intensity of `CTTCTGTAAATTTTTCACGTGACATGAAGCGCCCCGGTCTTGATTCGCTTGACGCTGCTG` is reported as 4850 a.u.
With `CGTCCTAGTGATTGGGTTGTGGGTGCCATGAGGAAGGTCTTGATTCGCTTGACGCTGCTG` the fluorescence intensity was 96.2 a.u.
The fluorescence intensity of `GCATCTGCAGGGTGCCTCGTGCAAAGTTAGAGGAAGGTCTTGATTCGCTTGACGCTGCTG` is reported as 121 a.u.
`CCAACCTGGCTTGCCCACGAGGATGGCTTTCTGGCTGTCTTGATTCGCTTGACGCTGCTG` has a fluorescence intensity of 68.2 a.u.
For `CCTTTGGTTTAGATGCACGTGTTGACGACATGAAAGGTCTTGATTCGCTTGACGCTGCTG`, the fluorescence intensity was 2150 a.u.
For `CCGCTGCTCGCCGGCCACGTGCGCAGCCTGCAGGAGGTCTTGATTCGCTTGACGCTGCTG`, the fluorescence intensity was 784 a.u.
`ACTGTTAAGAACCGTCACGTCTTCCTTTGGCTTTGAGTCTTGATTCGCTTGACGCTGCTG` has a fluorescence intensity of 93.8 a.u.
The fluorescence intensity of `ACTCTGCAATTCTATCAGTAGGTGGTGCAACCGCGTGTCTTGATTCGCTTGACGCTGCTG` is reported as 73.6 a.u.
`TTCTACAAAGCATTTCACATGCTAATAAAAGCCCCGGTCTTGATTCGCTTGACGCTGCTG` gave a fluorescence intensity of 158 a.u.
The fluorescence intensity of `AAATTACTAAGTTGCTTGGTGGGTGACGCCGTATGAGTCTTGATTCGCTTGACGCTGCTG` is reported as 56.4 a.u.
The fluorescence intensity of `TCACGAATCCTTCTCTAACTTACGTTCAAGAGGTTCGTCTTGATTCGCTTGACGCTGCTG` is reported as 58.6 a.u.
With `TCGGTGCGATTATTCTTCGTGCTTTAACAAGATGAGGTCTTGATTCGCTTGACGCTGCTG` the fluorescence intensity was 84.3 a.u.
The fluorescence intensity of `GCAATGCGATGCAGCCACGTTATATAATGCGTTTAAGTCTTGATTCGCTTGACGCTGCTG` is reported as 88.9 a.u.
With `TTGACCCAACTCGGCCACGTGGGTAGTTTTGCCATCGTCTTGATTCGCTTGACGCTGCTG` the fluorescence intensity was 953 a.u.
With `CCTGTCTCCTCTCAACACGTTGCTCCTGTCAATAGTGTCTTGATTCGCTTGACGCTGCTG` the fluorescence intensity was 104 a.u.

Sample 4 — method: DHFR PCA, deep sequencing; medium: yeast; added: (+)-ABA 710 µM; reference: wild-type fitted maximum; reading: higher = stronger binding
Target: ABI1, truncated, D143A, DHFR fusion (Arabidopsis thaliana)
Notes: methotrexate growth selection, single substitutions
Parent: PYL1, truncated, DHFR fusion (Arabidopsis thaliana); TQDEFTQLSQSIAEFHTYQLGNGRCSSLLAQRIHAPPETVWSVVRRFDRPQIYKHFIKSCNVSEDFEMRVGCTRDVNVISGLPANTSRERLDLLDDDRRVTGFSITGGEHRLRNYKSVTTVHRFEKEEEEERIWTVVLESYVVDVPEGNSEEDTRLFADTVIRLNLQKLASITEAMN
`E174Q` — result for “relative binding score”: 102%.
For `R45M`, “relative binding score” read 59.7%.
For `L94G`, “relative binding score” read -18%.
For `S117W`, “relative binding score” read -6.49%.
For `T106K`, “relative binding score” read 94.4%.
Under “relative binding score”, `K116N` is recorded as 94.2%.
Under “relative binding score”, `S42E` is recorded as 107%.
`V137S` — result for “relative binding score”: -3.24%.
Under “relative binding score”, `F5N` is recorded as 98.7%.
`D153F`: “relative binding score” 11.1%.
For `T17M`, “relative binding score” read 91%.
For `P36C`, “relative binding score” read 95.5%.
`E4K` — result for “relative binding score”: 93.3%.

Sample 5 — method: RNA Bind-n-Seq; molecule type: RNA; medium: in vitro; concentration: 365 nM; reference: no-protein control; reading: higher = stronger binding
Target: RNA binding protein fox-1 homolog 2, RRM domain, GST-SBP tag (RBFOX2, Homo sapiens, UniProt O43251-10, residues 100-194)
Notes: natural RNA segment, single round, ends assumed
Construct (chain): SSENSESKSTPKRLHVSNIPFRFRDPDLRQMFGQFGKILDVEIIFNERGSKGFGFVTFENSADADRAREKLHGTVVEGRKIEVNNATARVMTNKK
`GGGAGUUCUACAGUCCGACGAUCUCUAUUAACAGCCGUCUAGAAGCGAUGCUUUAGUGGCCUAACCCAGGGUCAAAUACAGCUCUUUCUAGCAAAAUCAGGCAGCUCUGCCCCAUCGGUAGGGGCACCGAUUAUGGAAUUCUCGGGUGCCAA`: “RBNS enrichment (R)” 0.259.
`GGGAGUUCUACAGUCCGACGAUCAGAAAAUAACUACACAUGGAAAUGAAACUAGCUGAAGCCUUUUCUUGUUUUAGCAACUGAAAAUUGUACUUGGUCACUUUUGUGCUUGAGGAGGCCCAUUUUCUGCCUGGUGGAAUUCUCGGGUGCCAA` — result for “RBNS enrichment (R)”: 1.01.
`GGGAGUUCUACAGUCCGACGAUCGAGGCGAGUGAGUGGCAUUAGCUCCCGGACCCAUUCCCGGUCCUAGCUGGGCAUGGGGCUGACGGAGAUGACCAAGCCUUGGUCUGCUCUCUAGCAGCUUCCACAGACUUUGGAAUUCUCGGGUGCCAA` — result for “RBNS enrichment (R)”: 0.262.
For `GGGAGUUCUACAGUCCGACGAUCCGCCAUCAAACUUAUGGGCAGGGAUAACAGUGUGCCUGGUUAAUAUUAAUAUUCCCAUUUUAUUAAUAAUAUUUAUGUUGGGUCAAGUGUUAGGUCAAUAACACUGUAUUUGGAAUUCUCGGGUGCCAA`, “RBNS enrichment (R)” read 0.462.
`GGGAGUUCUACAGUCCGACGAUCCCCUGUUAAUCUCCUUUUUUCUUGGAUUGGAGAGGAGAGAAUCUGGACAUGGCUUUGGACUUGGAGGAUAUCUUGGAUUGGAUUGCACAAUGGCUUAAAUUCUUGAUUCUUGGAAUUCUCGGGUGCCAA`: “RBNS enrichment (R)” 0.891.
For `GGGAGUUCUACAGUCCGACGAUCUAUUCUUGUGGUUAAAAACCUGCCUAAAUUAAAUUGGGCUUCAAUCACUGUAACCUGAUUCAUCCUGGGAUGUAAACCAUUCGAAGUCAGCUAAUUGGACUUUUAUGGCUUGGAAUUCUCGGGUGCCAA`, “RBNS enrichment (R)” read 0.261.
For `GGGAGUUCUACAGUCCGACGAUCCUUGAUUAAACAGUUUUUCUUGUUGCACAGUCCUAAUUUCAUAAGGUCAAGGAGACACUCAGGCAUUCCAGGAAACAAAUGUGUACAUGAUGUUACCAGAAACAGGCAUUUGGAAUUCUCGGGUGCCAA`, “RBNS enrichment (R)” read 1.03.
Under “RBNS enrichment (R)”, `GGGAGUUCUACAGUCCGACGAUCUACAGGCGUGAGCCACUGCGCCCGGGCAAGACCUUUUUUUAAAAAAAAAAAAAAAAAAACUUCCAUUCUUUCUUCCUCCAGUCUGUUCUCACAUAACAGAGUAGUUUUGGUGGAAUUCUCGGGUGCCAA` is recorded as 0.467.
Under “RBNS enrichment (R)”, `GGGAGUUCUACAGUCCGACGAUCCUCCAAGCUCCAUCUGCAAAGGAAGGAGGUCUUCCUAGCUGAGCCGACUGUACAUCUGCAGUCCCUCACUCAGGAGAUGGGAGCAGGAGGAUCAGGAGUUCAAGGUCAUCUGGAAUUCUCGGGUGCCAA` is recorded as 0.299.
`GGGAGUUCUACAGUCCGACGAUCGGGACAUAGUAUGUGACAAUCUGCAUCGAUCAUGGACUACUAAAUGCCUUUACAUAGAAGGGCUCUGAUUUGCACAAUUUGUUGAAAAAUCACAAACCCAUAGAAAAGUAUGGAAUUCUCGGGUGCCAA`: “RBNS enrichment (R)” 0.318.
Under “RBNS enrichment (R)”, `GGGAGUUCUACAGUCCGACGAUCAUUCAAACCGCGAUGUUUACUUUUUGUAUUGAUCACUUUUUUGCACUCCUUCUUCGUUGUCGAUGUUGUACUCAGCCUAUGGUAGGAGAGGAUGUGGCUUUGCAACUCAGUGGAAUUCUCGGGUGCCAA` is recorded as 1.13.
Under “RBNS enrichment (R)”, `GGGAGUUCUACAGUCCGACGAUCGGUACAGUUUGUUUAUGCAGGAGGAUGGCAUGCCAACUUCCCAGCUGCCUACUAGCAGUUUAACAAGGAGCCUUGCUGUCUCAGACAGGUGAAAGAAAAUGUCAUGCAUGUGGAAUUCUCGGGUGCCAA` is recorded as 1.31.

Repeated from above (sample 4):
For `R45M`, “relative binding score” read 59.7%.
For `T106K`, “relative binding score” read 94.4%.
For `S117W`, “relative binding score” read -6.49%.
Under “relative binding score”, `K116N` is recorded as 94.2%.
